{"data": "Assay results pooled from the literature", "note": "Each numbered part is a random draw from the data of one study; scales do not carry over between parts."}
{"data": "Series 1", "target": "Histone acetyltransferase KAT6A, both winged helices, GST fusion (KAT6A, Homo sapiens, UniProt Q92794, residues 1-181)", "technique": "protein binding microarray", "form": "double-stranded DNA, one strand shown", "medium": "in vitro", "tested at": "not given", "setting": "8-mer, flanks averaged, mean of 2 arrays, mostly near background", "relative to": "not given", "direction": "higher = stronger binding", "Target sequence (chain)": "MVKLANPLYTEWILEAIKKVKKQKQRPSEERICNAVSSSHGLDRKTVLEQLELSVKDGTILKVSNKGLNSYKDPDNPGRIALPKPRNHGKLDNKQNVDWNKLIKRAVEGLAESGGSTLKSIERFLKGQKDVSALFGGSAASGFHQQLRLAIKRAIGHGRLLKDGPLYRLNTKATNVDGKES"}
{"Strand": "CCGTCAGG", "E-score": 0.104}
{"Strand": "AGTGCAAG", "E-score": -0.111}
{"Strand": "ATGAGTTG", "E-score": -0.0752}
{"Strand": "ACAGGCAG", "E-score": -0.192}
{"Strand": "CCGAGAGA", "E-score": -0.102}
{"Strand": "AGCACGGC", "E-score": 0.219}
{"Strand": "CATAACAG", "E-score": -0.167}
{"Strand": "CCGCGCTA", "E-score": 0.32}
{"Strand": "CGGCTCTC", "E-score": 0.211}
{"Strand": "ACAGGGGT", "E-score": -0.181}
{"Strand": "AGCCGTGG", "E-score": 0.185}
{"Strand": "AGACCTCT", "E-score": -0.0869}
{"Strand": "ACATGCCC", "E-score": -0.0545}
{"Strand": "ACCCTAAA", "E-score": -0.156}
{"Strand": "CCAATGCA", "E-score": -0.171}
{"Strand": "AGGACGAC", "E-score": -0.0685}
{"Strand": "GTAGTAAC", "E-score": -0.0538}
{"Strand": "ATCACCAC", "E-score": -0.0292}
{"Strand": "ATTCGCGG", "E-score": 0.282}
{"Strand": "CTCCCGGA", "E-score": 0.0283}
{"Strand": "GCTGCTCC", "E-score": 0.0655}
{"Strand": "GATCCAAA", "E-score": -0.12}
{"Strand": "AGCACTTA", "E-score": -0.203}
{"Strand": "CGGGAATA", "E-score": 0.218}
{"Strand": "CGACGCCG", "E-score": 0.376}
{"data": "Series 2", "target": "Interferon regulatory factor 5, full length, phosphomimetic (IRF5, Homo sapiens, UniProt Q13568-2, residues 1-514, S451D/S453D/S456D/S462D)", "technique": "protein-binding microarray", "form": "double-stranded DNA, one strand shown", "medium": "in vitro", "tested at": "940 nM top", "setting": "60-bp whole probe", "together with": "salmon DNA 0.4 mg/ml", "relative to": "random background probes", "direction": "higher = stronger binding", "shared flanks, not repeated": "GCCTAGCAC … GTCTTGATTCGCTTGACGCTGCTG"}
{"Strand": "GACGGTCTCGGGACTGGGGACGTGCTA", "fitted relative affinity": "0.854 z-score"}
{"Strand": "TCAGAACTGTTTCTTGAACTGTGCTAG", "fitted relative affinity": "0.0697 z-score"}
{"Strand": "TCATTTCTCCTTTCCAAACTGTGCTAG", "fitted relative affinity": "1.75 z-score"}
{"Strand": "GACGGTCTCCTTATCCTAACGTGCTAG", "fitted relative affinity": "0.56 z-score"}
{"Strand": "TTAGAACTGAGACTGGACTAGTGCTAG", "fitted relative affinity": "-0.182 z-score"}
{"Strand": "GACGATATCAGTCTCCAGACGTGCTAG", "fitted relative affinity": "0.0312 z-score"}
{"Strand": "TTAGGTATCGGTAGCGGTTAGTGCTAG", "fitted relative affinity": "9.41 z-score"}
{"Strand": "GACGGGTTCGACACTGGGGACGTGCTA", "fitted relative affinity": "-0.407 z-score"}
{"Strand": "GACGATATCAGTATCGAGACGTGCTAG", "fitted relative affinity": "2.19 z-score"}
{"Strand": "GACGATTTGGGGACTGGAGACGTGCTA", "fitted relative affinity": "0.0561 z-score"}
{"Strand": "TCAGCTTTCTCTTTCACACTGTGCTAG", "fitted relative affinity": "2.17 z-score"}
{"Strand": "TCAGTTCTTTTTTTCAAACTGTGCTAG", "fitted relative affinity": "1.18 z-score"}
{"Strand": "GACGAACTGGGGTGTCGAGACGTGCTA", "fitted relative affinity": "0.04 z-score"}
{"Strand": "GACGGACTGGACTTACGGGACGTGCTA", "fitted relative affinity": "-0.554 z-score"}
{"Strand": "GACGGTATCGGACTGGAGACGTGCTAG", "fitted relative affinity": "2.46 z-score"}
{"Strand": "GACGAGCTGGGGTTTCGAGACGTGCTA", "fitted relative affinity": "2.29 z-score"}
{"Strand": "GCTGCCCTCACCATCATCCTGTGCTAG", "fitted relative affinity": "0.52 z-score"}
{"Strand": "GACGGTTTCCACTATCGGGACGTGCTA", "fitted relative affinity": "1.24 z-score"}
{"Strand": "TTTTTTTTCTTTAAAAGTGAGTGCTAG", "fitted relative affinity": "0.378 z-score"}
{"Strand": "CAGCACATGCATCTCCCACAGTGCTAG", "fitted relative affinity": "0.191 z-score"}
{"Strand": "AATTTGAGAACGGAAACCAAGTGCTAG", "fitted relative affinity": "-0.0509 z-score"}
{"Strand": "TTAGATCCCAGTTTCGATTAGTGCTAG", "fitted relative affinity": "7.78 z-score"}
{"data": "Series 3", "target": "RNA binding protein fox-1 homolog 2, RRM domain, GST-SBP tag (RBFOX2, Homo sapiens, UniProt O43251-10, residues 100-194)", "technique": "RNA Bind-n-Seq", "form": "RNA", "medium": "in vitro", "tested at": "365 nM", "setting": "natural RNA segment, single round, ends assumed", "relative to": "no-protein control", "direction": "higher = stronger binding", "Residues (chain)": "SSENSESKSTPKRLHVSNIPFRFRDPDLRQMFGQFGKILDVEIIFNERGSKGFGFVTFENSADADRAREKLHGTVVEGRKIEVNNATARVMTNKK"}
{"Strand": "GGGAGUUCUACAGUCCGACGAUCAGGAAGACUAAUUGCCAAUAACGUCUGCAUUUUCAUCUUGCAUGGAUUAACAGCCAUUUAUAUGGACUUAUGUCUCUUAAUGCACAAAGAAGCAGAUAUCUCGAAGGAGCUGGAAUUCUCGGGUGCCAA", "RBNS enrichment (R)": 0.264}
{"Strand": "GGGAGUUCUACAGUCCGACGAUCUCUGCAAGGGAAUUCUUGUGUGCUGCUUUCCAUUUGACACCGCAGUUCUGUUCAGCCAUCAGAAGAGAGACAAGGAAUUAAAAAUUUCUUUUUAAUCCUGUUACCAAAUAUGGAAUUCUCGGGUGCCAA", "RBNS enrichment (R)": 0.326}
{"Strand": "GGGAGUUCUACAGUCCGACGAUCUUACUGAGGGAGCCAGGCUCUGCCGUCCAAAUGUAGGCCUUUUGUUGUGUUGUAUUUUUGUUUUUAAAUAAAAGUACAGUAUAAAUUUUCCUAUUAAAUAAGAUUAUUUUUGGAAUUCUCGGGUGCCAA", "RBNS enrichment (R)": 0.392}
{"Strand": "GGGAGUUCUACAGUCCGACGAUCUUUAUUUCUCACCAAAAUAAAAGCAUUUAUGAGAAUUAUAAGUAAAGCUUUCUGUAUUUCAGAGAGACAUAAGUUACUAGAAAGUGAAAAGUGAAUAAAUAAGUCACAGAUGGAAUUCUCGGGUGCCAA", "RBNS enrichment (R)": 0.58}
{"Strand": "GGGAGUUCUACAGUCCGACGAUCAGCUACAUUUUUUUUUGGUAGAGACAGGGUCUCACUAUGUUACCCAGUCUGGUCUCAAACUCCCGGCCUCAAGCAAUCCUCCCACUGGCCUCACAAUGUUGGGAUUACAGUGGAAUUCUCGGGUGCCAA", "RBNS enrichment (R)": 0.195}
{"Strand": "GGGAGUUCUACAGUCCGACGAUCAAGCCUGGGGAGGGGUUCCUCAGUGCAGGAGUUGGGGACAGGCUGGGGAUCCAAGCUGCUUGAGGGGGUCAACCUUGGACCAAAGUUGCCUUAAGCCUGUGGUAAAAGGGUGGAAUUCUCGGGUGCCAA", "RBNS enrichment (R)": 0.623}
{"Strand": "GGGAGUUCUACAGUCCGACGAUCUUAGGACAAAGUCAGCCAGACACCUUGUACUGGGCACGCGUCAGACUGCAGCCAGUCCGUUUCCUUUCUUUAGCCAGCCAUCCUGGUACUGUAGUUUAGGGGUUGAUGGUUGGAAUUCUCGGGUGCCAA", "RBNS enrichment (R)": 0.5}
{"Strand": "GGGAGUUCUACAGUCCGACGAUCGGGGAAAAGAAUGUGCAGUAGAGUGCAAAUACAUUACAAUUACUGGAAAAUUGGUGGAAAAUGCUUUUUGGGGUUACAAUUAUAUCAUUUUUAAGUGUUGAUGCUUUGUAUGGAAUUCUCGGGUGCCAA", "RBNS enrichment (R)": 0.9}
{"Strand": "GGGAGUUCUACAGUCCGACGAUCCCUCUCUUUCCUCCAAGCUAUUUUCUUCCUGGUUGUGGGGCGCGAAGGGCACACUGUAAAGUUGGGCUGUGUACUUGGUGGGGUUAGUGUGGAGAAGAGGGCCUCAUCGCUGGAAUUCUCGGGUGCCAA", "RBNS enrichment (R)": 0.508}
{"Strand": "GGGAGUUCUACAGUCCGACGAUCUGAUUCUGUUUGUGCAGAUUAAAAACUUUAUAGGGACUUGCAUUAUCGGUUCUCAAUAAAUUACUGAGCAGCUUUGUUUGGGGAGGGAAGUCCCUACCAUCCUUGUUUAGUGGAAUUCUCGGGUGCCAA", "RBNS enrichment (R)": 5.8}
{"Strand": "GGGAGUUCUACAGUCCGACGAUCGCCUGUCGCUACCUGGGGCUGUGGCAGCGGAAGUGUUUAGUGACAAGUGGGUCUGGGCAGCUUCCCCUGAGCUUACGUUUUGUUUUGUUUUGUUUUUUCGAUGUGAAUAGUGGAAUUCUCGGGUGCCAA", "RBNS enrichment (R)": 2.22}
{"Strand": "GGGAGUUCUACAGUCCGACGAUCAAUGCUGGUAUUUGAUUUCCUGUGUGUGUUGCCCUGGCAUUAAGGGCAUUUUACCCUUGCAGUUUUACUAAAACACUGAAAAAUAUUCCAAGCUUCAUAUUAACCCUACCUGGAAUUCUCGGGUGCCAA", "RBNS enrichment (R)": 0.56}
{"data": "Series 4", "target": "Sal-like protein 4, full length isoform A (SALL4, Homo sapiens, UniProt Q9UJQ4, residues 1-1053)", "technique": "universal PBM", "form": "double-stranded DNA, one strand shown", "medium": "in vitro", "tested at": "600 nM", "setting": "8-mer, flanks averaged, mean of replicates", "direction": "higher = stronger binding", "sequence of UniProt Q9UJQ4 (whole entry, looked up)": "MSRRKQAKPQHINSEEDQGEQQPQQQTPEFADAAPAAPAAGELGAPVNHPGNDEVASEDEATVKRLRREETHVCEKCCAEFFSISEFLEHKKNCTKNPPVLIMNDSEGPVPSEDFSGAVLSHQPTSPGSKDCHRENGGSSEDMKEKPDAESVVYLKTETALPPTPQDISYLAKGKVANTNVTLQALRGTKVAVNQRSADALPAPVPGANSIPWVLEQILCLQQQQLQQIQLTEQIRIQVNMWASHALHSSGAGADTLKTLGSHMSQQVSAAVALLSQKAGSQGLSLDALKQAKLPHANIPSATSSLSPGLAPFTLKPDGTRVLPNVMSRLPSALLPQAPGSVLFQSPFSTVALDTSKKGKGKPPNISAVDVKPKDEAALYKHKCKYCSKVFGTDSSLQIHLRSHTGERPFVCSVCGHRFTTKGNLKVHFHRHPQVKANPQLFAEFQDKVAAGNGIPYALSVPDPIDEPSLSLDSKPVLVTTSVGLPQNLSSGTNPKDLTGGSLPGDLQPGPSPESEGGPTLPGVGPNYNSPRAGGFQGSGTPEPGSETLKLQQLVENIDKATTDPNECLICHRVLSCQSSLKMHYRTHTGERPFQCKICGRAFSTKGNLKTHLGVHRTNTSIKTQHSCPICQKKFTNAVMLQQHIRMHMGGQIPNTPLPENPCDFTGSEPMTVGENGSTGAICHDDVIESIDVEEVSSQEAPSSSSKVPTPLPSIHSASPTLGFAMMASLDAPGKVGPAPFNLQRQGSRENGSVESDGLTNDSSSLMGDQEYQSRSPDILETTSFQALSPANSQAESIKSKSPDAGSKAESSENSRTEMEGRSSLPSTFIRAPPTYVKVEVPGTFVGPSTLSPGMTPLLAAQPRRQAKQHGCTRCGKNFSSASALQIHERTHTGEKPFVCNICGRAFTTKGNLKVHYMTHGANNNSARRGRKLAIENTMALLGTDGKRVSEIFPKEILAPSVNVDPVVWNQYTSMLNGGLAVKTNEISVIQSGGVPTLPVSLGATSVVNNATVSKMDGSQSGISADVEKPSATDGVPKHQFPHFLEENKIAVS"}
{"Strand": "GACTAGAA", "E-score": 0.0204}
{"Strand": "ACGGGTCT", "E-score": -0.306}
{"Strand": "AAGTACAT", "E-score": 0.164}
{"Strand": "CATGTCAG", "E-score": -0.0581}
{"Strand": "AACGGTGG", "E-score": -0.101}
{"Strand": "CCTCCGCC", "E-score": -0.283}
{"Strand": "AAAGCGCA", "E-score": -0.0948}
{"Strand": "AATCAGCA", "E-score": 0.0788}
{"Strand": "AGATCAAT", "E-score": 0.126}
{"Strand": "AACTGATA", "E-score": 0.207}
{"Strand": "GTGCGGAA", "E-score": -0.0695}
{"Strand": "AGATCCTA", "E-score": -0.0589}
{"Strand": "ATTAAAGA", "E-score": 0.318}
{"Strand": "ATGGACAA", "E-score": 0.164}
{"Strand": "GGGAGATA", "E-score": 0.0522}
{"Strand": "ACTCCCGG", "E-score": -0.259}
{"Strand": "CATGACAA", "E-score": -0.0207}
{"Strand": "GTCATGAA", "E-score": 0.0401}
{"Strand": "CAACGACA", "E-score": 0.0156}
{"Strand": "CCCGAATC", "E-score": -0.261}
{"Strand": "AGGTCTGA", "E-score": -0.0468}
{"Strand": "AGTCTAGA", "E-score": 0.105}
{"Strand": "ACTGAAAA", "E-score": 0.212}
{"Strand": "GCTAAAAC", "E-score": -0.0436}
{"Strand": "CGCTACAC", "E-score": -0.127}
{"note": "Some of these lines once more (series 1):"}
{"Strand": "CATAACAG", "E-score": -0.167}
{"Strand": "CCAATGCA", "E-score": -0.171}
{"Strand": "AGCACTTA", "E-score": -0.203}
{"Strand": "CGGCTCTC", "E-score": 0.211}
{"Strand": "AGCCGTGG", "E-score": 0.185}
{"Strand": "ACAGGCAG", "E-score": -0.192}
{"Strand": "CTCCCGGA", "E-score": 0.0283}
{"Strand": "GATCCAAA", "E-score": -0.12}
{"Strand": "AGTGCAAG", "E-score": -0.111}
